# Results gathered from unrelated publications.
# Compare with care: the assays were run in different laboratories. “And” joins repeats or separate records; there may be more than shown. Numbers after ± are the reported error.
SMILES,assay,system,conditions,how to read,quantity,result
Cc1cc(F)cc2c(CCC(=O)N[C@@H]3C(=O)NC[C@H]3O)c(-c3ccc(F)cc3)[nH]c12,,"APOL1 G2 mice, IFNγ-induced","30 mg/kg twice daily, day 9",,urine albumin/creatinine ratio,493 µg/mg and 223 µg/mg and 677 µg/mg and 2760 µg/mg and 1040 µg/mg and 5920 µg/mg
CCOCc1nc(O)c(-c2nnc(Cc3ccc(Cl)cn3)o2)c(O)c1-c1c(OC)cccc1OC,,instrumented anaesthetised rat,"intravenous infusion, 100 µg/kg/min for 15 min, 15 min",relative to: baseline,MAP change,-2.1 ± 0.6%
Cn1cc(Nc2nccc(-c3ccc4c(c3)CN(C3COC3)CC[C@H]4NC(=O)c3cn(C(C)(C)C)nn3)n2)cn1,refers to: G Beta Gamma Signaling,"splenic B cells, mouse","in vivo, 30 mg/kg, IgD-activated B cells","relative to: vehicle, positive = activation",pathway activation z-score,3.61
Cc1cc([C@H]2C[C@H]3[C@@H](C)SC(N)=N[C@@]3(c3ccc(F)cc3F)CO2)on1,refers to: Aβx-42,"Mus musculus wild-type, brain","subcutaneous, 50 mg/kg, 3 h",,Aβ42 level,0.2 ng/g
CCN1CCN(Cc2ccc(Nc3ncc(F)c(-c4cc(F)c5nc6n(c5c4)[C@H](C)CCC6)n3)nc2)CC1,,human advanced solid tumours,"400 mg, phase Ia monotherapy RECIST 1.1",,non-CR/non-PD,0%
C[C@H]1C[C@H]2CSC(N)=N[C@@]2(c2nc(NC(=O)c3ccc(OC(F)F)cn3)cs2)CO1,refers to: total Aβ,"healthy adults, plasma","50 mg once daily, day 2",relative to: placebo,percent change from baseline,-56.8%
CC1(C)CCC2(CC1)N[C@@H](C(=O)N[C@@H]1CC[C@@H](C(N)=O)OC1)[C@H](c1ccnc(Cl)c1F)[C@]21C(=O)Nc2cc(Cl)ccc21,,"human, solid tumours","120 mg/day, RECIST",relative to: patients,disease control rate,33.3%
O=C(COc1ccc(Cl)cc1)NC12CC(c3nnc([C@H]4C[C@@H](OC(F)(F)F)C4)o3)(C1)C2,,"healthy human, PBMC","200 mg once daily, day 15, 24 h post-dose, median, together with: sodium arsenite ex vivo",relative to: baseline,CHAC1 mRNA change,-91.2%
CC#CC(=O)N[C@H]1CCCN(c2c(F)cc(C(N)=O)c3[nH]c(C)c(C)c23)C1,,"healthy volunteers, multiple ascending dose, serum","10 mg once daily, day 21",,change from baseline in serum IgM,-6.2%
CC(C)NCC(O)c1ccc(O)c(O)c1 (stereo not shown),,"ventricular cardiomyocytes, C57BL/6 mouse","dose not given, 0.56 s",,sarcomere length,1.52 µm
NC(=O)c1cnc2[nH]ccc2c1N[C@@H]1[C@@H]2CC3C[C@H]1C[C@@](O)(C3)C2,"CD8+ effector T cells, flow cytometry","Japanese humans, peripheral blood",60 mg single dose,relative to: baseline,percent change,0.38%
c1ccc(-c2n[nH]cc2-c2ccnc3ccccc23)nc1,"kinase binding, competitor, MIB/MS competition, refers to: HST7",Candida albicans cell lysate,1 µM,relative to: DMSO,log2 fold change,1.72
COc1ccccc1[C@H](Cn1c(=O)n(C(C)(C)C(=O)O)c(=O)c2c(C)c(-c3ncco3)sc21)OC1CCOCC1,,human,"50 mg, post-treatment",,blood Triglycerides level,143 ± 103 mg/dL
Cc1cc(Nc2ncc(Cl)c(Nc3ccccc3S(=O)(=O)C(C)C)n2)c(OC(C)C)cc1C1CCNCC1,,patients with advanced solid tumours,"dose not given, together with: gemcitabine",,overall survival,9.8 months
O=C(NOC1Cc2ccccc2C1)c1c(-c2ccc3ccccc3c2)nc2occn12,"inducer, refers to: Cyp2b10","hCAR transgenic male mice, liver","intraperitoneal, 10 mg/kg, 24 h",,mRNA level,increased
COc1nc(NCc2cn(-c3ccc(NC(=O)c4ccc(F)cc4)cc3)nn2)nc(OC)n1,MTT,"normal colonocytes, rat",72 h,,maximum non-toxic concentration,1.4 ± 0.13 nM
COc1cc2cc(-c3ccc(CC(=O)Nc4cc(C(C)(C)C(F)(F)F)no4)cn3)cnc2cc1OC,RECIST v1.1,human RET-altered solid tumours,"12 75 mg tablets, phase I",,disease control rate,67%
CCO,,supine,"concentration not given, 0 to 4 h",relative to: baseline,change in DBP AUEC(0-4 h),-31 ± 17.9 mmHg·h
O=C(O)CNC(=O)Cc1ccccc1,,"ventricular cardiomyocytes, C57BL/6 mouse","dose not given, 0.82 s",,sarcomere length,1.66 µm
Cc1cn(-c2cc(NC(=O)c3ccc(C)c(Nc4nccc(-c5cccnc5)n4)c3)cc(C(F)(F)F)c2)cn1,refers to: phospho-tau 181,"human, cerebrospinal fluid","dose not given, between 12 and 6 months, unit not given",relative to: placebo,median difference in change,1.11
C=C1CC[C@H](OCCCNC(=O)CCOCCOCCOCCOCCOCCOCCOCCOCCOCCOCCOCCOCCOCCOCCOCCOCCOCCOCCOCCOCCOCCOCCOCCOCCOCCOCCOCCOCCOCCOCCOCCOCCOCCOCCOCCOCCNC(=O)CCN2C(=O)CC(SC[C@H](NC(=O)[C@H](CCCNC(=N)N)NC(=O)[C@@H]3CCCN3C(=O)[C@H](CCC(N)=O)NC(=O)[C@H](CC(C)C)NC(=O)[C@H](CCCCN)NC(=O)[C@H](C)NC(=O)[C@@H]3CCCN3C(=O)[C@@H]3CCCN3C(=O)[C@H](CCCCN)NC(=O)[C@H](CCCCN)NC(=O)[C@H](CO)NC(=O)[C@H](CCC(=O)O)NC(=O)[C@H](CCCCN)NC(=O)[C@H](CCCNC(=N)N)NC(=O)[C@H](CCC(N)=O)NC(=O)[C@H](CCC(N)=O)NC(=O)[C@@H](NC(=O)[C@H](CCCNC(=N)N)NC(=O)[C@H](CCC(N)=O)NC(=O)[C@H](Cc3c[nH]cn3)NC(=O)[C@H](CCC(=O)O)NC(=O)[C@@H]3CCCN3C(=O)[C@H](CO)NC(=O)[C@H](CC(C)C)NC(=O)[C@H](Cc3ccccc3)NC(=O)[C@H](CNC(=O)CCCCCCC)NC(=O)[C@H](CO)NC(=O)CN)C(C)C)C(=O)O)C2=O)C/C1=C/C=C1\CCC[C@]2(C)[C@@H]([C@H](C)CCCC(C)(C)O)CC[C@@H]12 (stereo partly shown),"real-time RT-PCR, refers to: Trim63","mice, LLC tumour-bearing, tibialis anterior",daily or every other day,relative to: tumour-bearing vehicle,mRNA level,decreased
Oc1ccc(Br)cc1C=NCCN1CCOCC1,superoxide scavenging,,40 µM,,inhibition,5.51%
CC[C@@H](C)[C@@H](NC(=O)[C@@H](Cc1ccc(O)cc1)NC(=O)[C@H]1CCCN1C(=O)[C@@H](CCCNC(=N)N)NC(=O)[C@H](N)Cc1c[nH]cn1)C(=O)N[C@H](C)C(=O)N[C@H](Cc1c[nH]cn1)C(=O)N[C@H](CCCNC(=N)N)C(=O)N[C@@H](C(=O)N[C@H](Cc1ccc(O)cc1)C(=O)N[C@H](CO)C(=O)N[C@H](Cc1ccccc1)C(N)=O)C(C)C,ex vivo flow cytometry,"GL261-Luc brain tumour mice, tumour",dose not given,,IFN-γ+ CD8+ T cell frequency,7.47% and 6.04% and 8.44%
N#Cc1ccc2c(-c3ccncc3)c(-c3ccc(F)cc3)nn2c1,"kinase binding, competitor, MIB/MS competition, refers to: NPR1",Candida albicans cell lysate,1 µM,relative to: DMSO,log2 fold change,-0.54
COc1ccc(-c2cncc(N[C@@H](C)c3cccc(NC(=O)c4cncc(C)c4)c3)n2)cc1OC,refers to: rno-miR-365-3p,"rat SU5416/hypoxia model, lung","dose not given, unit not given",relative to: SU5416/hypoxia vehicle,delta delta Ct,0.26
N#Cc1ccc2c(c1)[C@H]1CCCN(C(=O)c3ccc4[nH]cnc4c3)[C@H]1C2,refers to: 2 h postprandial glucose,"human, Phase II trial","oral, 80 mg once daily, day 28, adjusted mean, SE",,change from baseline,25.5 mg/dL
C=Cc1c(C)c2cc3nc(c(CC(=O)O)c4[nH]c(cc5nc(cc1[nH]2)C(C)=C5CC)c(C)c4C(=O)O)[C@@H](CCC(=O)O)[C@@H]3C,flow cytometry,4T1 tumour-bearing mice,dose not given,,IFN-γ+ CD8+ T cells,0.72% and 0.64% and 0.86% and 0.65%
Cn1cc([C@H]2C[C@H]3CSC(N)=N[C@@]3(c3ccc(F)cc3F)CO2)cn1,refers to: Aβx-40,"wild-type mouse, brain","subcutaneous, 50 mg/kg, 13 h",,brain Aβ40 level,1.46 ng/g
N#Cc1ccn2c(-c3ccncc3)c(-c3ccc(F)cc3)nc2c1,"kinase binding, competitor, MIB/MS competition, refers to: ENV7",Candida albicans cell lysate,100 nM,relative to: DMSO,log2 fold change,-0.0593
Cc1cc([C@H]2C[C@H]3[C@@H](CF)SC(N)=N[C@@]3(c3ccc(F)cc3F)CO2)on1,refers to: Aβx-42,"Mus musculus wild-type, brain","subcutaneous, 30 mg/kg, 9 h",,Aβ42 level,0.57 ng/g
CCc1c(C)nc(-c2ccc(Cl)s2)nc1Nc1ccc(CC(=O)O)cc1,refers to: PDE4D,"C57BL/6J mice, MCD diet, liver","intraperitoneal, 0.3 mg/kg daily, MCD diet 6 weeks, dosed last two",relative to: vehicle,mRNA level,increased
N.N.O=C([O-])C1(C(=O)[O-])CCC1.[Pt+2],ICP-MS,"human patient, PBMC DNA","dose not given, after compound, together with: carboplatin",,platinum-DNA adducts,2.06 fg Pt/ng DNA
Cc1cc(/C=C2\Oc3cc(OCC4CC4)ccc3C2=O)cc(C)c1OC(C)(C)C(=O)O,"RT-PCR, refers to: PCK1, G6PC","db/db mice, MCD diet-fed, liver",30 mg/kg,relative to: model group,mRNA level,decreased
Cc1cnc(N2CC3(CCOCC3)C2)c(C(=O)Nc2ccc(C(=O)N3CCc4cc(C(=O)Nc5c(C)cccc5F)sc4-c4ccccc43)cc2)c1,,"human, RSV infection, nasal wash","dose not given, ITT-IS population",relative to: placebo,inhibition of HMGB1 AUC,4%
CN[C@@H]1COc2c(S(=O)(=O)NC(=O)Nc3c4c(cc5c3CCC5)CCC4)cnn2C1,refers to: IL-18,"human participants, whole blood ex vivo","150 mg single dose, 4 h, IL-18, circulating, adjusted for, together with: LPS/ATP",relative to: baseline,inhibition,99.4%
CCOc1c([C@H](C)n2nc(C)c3c(N)ncnc32)cc(Cl)c(F)c1[C@@H]1CNC(=O)C1,"Olink proximity extension proteomics, refers to: CCL17","human FL or MZL patients, plasma","dose not given, week 8",relative to: baseline,plasma protein level change,-64%
Cc1ccc([C@@H]2O[C@H](CO)[C@@H](O)[C@H](O)[C@H]2O)cc1Cc1ccc(-c2ccc(F)cc2)s1,,Japanese type 2 diabetes patients,"25 mg, day 1",relative to: day 0,change in 24-h mean serum insulin,-3.4 µU/mL
